# Results gathered from unrelated publications.
# Numbers after ± are the reported error.
# ZAP70 SH2 domains: Tyrosine-protein kinase ZAP-70, SH2 domains (ZAP70, Homo sapiens, UniProt P43403)
# pfkA T158A: pfkA (Geobacillus stearothermophilus, UniProt P00512, T158A)
SMILES,tested on,test,system,conditions,how to read,quantity,value
NS(=O)(=O)C(F)(F)F,"CA4 (Homo sapiens, UniProt P22748)",binding,,,,Kd,0.118 µM
CC(C)(Nc1nc(N2CCNCC2)nc2ccccc12)c1ccccc1,Vero-E6,CellTiter-Glo ATP,,"72 h, retest 8-point duplicates","reference: DMSO 0%, hyamine -100%, more negative, more toxic",maximum response,-4.44%
CN(CC(=O)O)C(=N)NP(=O)(O)O,"CKMT1A (Homo sapiens, UniProt P12532, E265D)",microscale thermophoresis,,"pH 7.0, E227D mutant, no substrate",,Kd,225 ± 90 µM
CC(C)C[C@@H]1NC(=O)CNC(=O)[C@H](CC(C)C)NC(=O)[C@@H]2CCCN2C(=O)[C@H](CC(=O)O)NC(=O)[C@H](Cc2ccc(O)cc2)NC(=O)CNC(=O)[C@@H](Cc2ccc(O)cc2)NC(=O)CSC[C@@H](C(N)=O)NC(=O)[C@H](C)NC(=O)[C@H](Cc2ccccc2)NC(=O)[C@H](Cc2ccc(O)cc2)NC(=O)[C@H](CCCCN)NC1=O,"VPS35/VPS29 (Homo sapiens, UniProt Q96QK1+Q9UBQ0)","binding, ITC",,"25 °C, heterodimer",,Kd,0.029 ± 0.002 µM
Nc1ncnc2c1ncn2[C@@H]1O[C@H](COP(=O)(O)OP(=O)(O)O)[C@@H](O)[C@H]1O,"Cell cycle histidine kinase CckA, cytoplasmic region (Caulobacter vibrioides, UniProt Q9X688)","binding, kinetic model fit",,"second binding constant, with: saturating c-di-GMP",,Kd,0.3 µM
C[N+](C)(C)[C@@H](Cc1c[nH]c(=S)[nH]1)C(=O)[O-],"egtUBC (Streptococcus pneumoniae, UniProt A0A0H2ZQB9, I243P)",binding,,,,Kd,45.5 µM
CCCCc1cc2c(cc1C(=C1CC1)c1ccc(C(=O)O)cc1)C(C)(C)CCC2(C)C,"RXRA (Homo sapiens, UniProt P19793)","binding, tryptophan fluorescence titration",,,,Kd,0.015 µM
O=C(O)c1ccc(S)nc1,"6-hydroxynicotinate 3-monooxygenase (nicC, Pseudomonas putida, UniProt Q88FY2, H47Q)",binding,,,,Kd,2900 ± 100 µM
CC[C@H](C)[C@H](NC(=O)c1ccc2c(c1)C(=O)OC21c2ccc(N(C)C)cc2Oc2cc(N(C)C)ccc21)C(=O)N[C@@H](CCC(=O)O)C(=O)N[C@@H](CO)C(=O)N[C@@H](CO)C(=O)N[C@@H](CC(N)=O)C(=O)N[C@@H](Cc1ccc(O)cc1)C(=O)N[C@@H](CCSC)C(=O)N[C@@H](C)C(=O)N1CCC[C@H]1C(=O)N[C@@H](Cc1ccc(OP(=O)(O)O)cc1)C(=O)N[C@@H](CC(=O)O)C(=O)N[C@@H](CC(N)=O)C(=O)N[C@@H](Cc1ccc(O)cc1)C(=O)N[C@H](C(=O)N1CCC[C@H]1C(=O)N[C@@H](CO)C(=O)N[C@@H](C)C(=O)N[C@@H](CC(=O)O)C(=O)O)C(C)C,ZAP70 SH2 domains,binding,,,,Kd,1.11 µM
COc1cc(Nc2ncc(F)c(Nc3ccc4c(n3)NC(=O)C(C)(C)O4)n2)cc(OC)c1OC,"PTP4A3 (Homo sapiens, UniProt O75365)",,,PRL-3,,IC50,> 10 µM
C=C(OP(=O)(O)O)C(=O)O,pfkA T158A,,,,,Kd,98 ± 4 µM
CC[C@H](C)[C@H](NC(=O)[C@H](CC(=O)O)NC(=O)[C@H](Cc1ccccc1)NC(=O)[C@@H](NC(=O)[C@H](CC(N)=O)NC(=O)[C@@H](NC(=O)[C@H](CC(=O)O)NC(=O)c1ccc2c(c1)C(=O)OC21c2ccc(N(C)C)cc2Oc2cc(N(C)C)ccc21)C(C)C)[C@@H](C)O)C(=O)N[C@H](C(=O)N[C@H](C(=O)N[C@@H](Cc1ccc(OP(=O)(O)O)cc1)C(=O)N[C@@H](CC(C)C)C(=O)N[C@@H](CC(C)C)C(=O)N[C@@H](CCC(N)=O)C(=O)NCC(=O)N[C@@H](CCCNC(=N)N)C(=O)N[C@@H](CCCNC(=N)N)C(=O)N[C@@H](CC(C)C)C(=O)N[C@@H](CC(=O)O)C(=O)O)C(C)C)[C@@H](C)O,ZAP70 SH2 domains,binding,,,,Kd,0.297 µM
Cc1cc2nc3c(=O)[nH]c(=O)nc-3n(C[C@H](O)[C@H](O)[C@H](O)COP(=O)(O)O)c2cc1C,"5,6-dimethylbenzimidazole synthase (bluB, Rhizobium meliloti, UniProt Q92PC8, R34Q)",binding,Sinorhizobium meliloti,,,Kd,11 ± 3 µM
O=C(CO)[C@@H](O)[C@H](O)[C@H](O)COP(=O)(O)O,pfkA T158A,,,,,Kd,17 ± 1 µM
N[C@@H](Cc1ccc(O)cc1)C(=O)O,"Methyl-accepting chemotaxis protein McpA, ligand-binding domain (Bacillus velezensis, UniProt A7Z835)","binding, biolayer interferometry",,"25 °C, 1:1 binding model",,Kd,133 ± 32.8 µM
CSCC[C@H](NC(=O)CNC(=O)[C@H](Cc1ccccc1)NC(=O)[C@H](CC(=O)O)NC(=O)CNC(=O)c1ccc2c(c1)C(=O)OC21c2ccc(N(C)C)cc2Oc2cc(N(C)C)ccc21)C(=O)N[C@@H](CO)C(=O)N[C@@H](CCCNC(=N)N)C(=O)N[C@@H](CC(=O)O)C(=O)N[C@H](C(=O)N[C@@H](Cc1ccc(OP(=O)(O)O)cc1)C(=O)N[C@@H](CO)C(=O)N[C@H](C(=O)N[C@@H](CC(=O)O)C(=O)N[C@@H](Cc1ccc(O)cc1)C(=O)N[C@@H](Cc1ccc(O)cc1)C(=O)N[C@@H](CCCNC(=N)N)C(=O)N[C@H](C(=O)N[C@@H](CC(=O)O)C(=O)O)C(C)C)[C@@H](C)O)C(C)C,"Tyrosine-protein kinase Fgr, SH2 domain (FGR, Homo sapiens, UniProt P09769)",binding,,,,Kd,1.19 µM
COc1cc2c(cc1OCC1CC1)NC(=O)C21CCN(c2cc(NC3CC3)ncn2)CC1,Vero-E6,CellTiter-Glo ATP,,"72 h, first round 5-point","reference: DMSO 0%, hyamine -100%, more negative, more toxic",maximum response,0.236%
C[C@H]1CN(c2n[nH]c3nc(N[C@H]4CC[C@H](NS(=O)(=O)CCC(F)(F)F)CC4)ncc23)CCO1,"HSPA9 (Homo sapiens, UniProt P38646)","inhibitor, Kinobeads competition profiling",,20 µM,reference: vehicle,relative abundance,1.12
CC[C@H](C)[C@H](NC(=O)[C@H](CCCNC(=N)N)NC(=O)CNC(=O)[C@H](Cc1c[nH]c2ccccc12)NC(=O)[C@@H]1CSC[C@@H](NC(=O)[C@H](Cc2ccc(O)cc2)NC(=O)[C@H](Cc2c[nH]c3ccccc23)NC(=O)[C@H](CC(C)C)NC(=O)CNC(=O)[C@H](CCCNC(=N)N)NC(=O)c2ccc3c(c2)C(=O)OC32c3ccc(O)cc3Oc3cc(O)ccc32)C(=O)N[C@@H](CC(C)C)C(=O)N[C@@H](CO)C(=O)N1)C(=O)NCC(=O)N[C@@H](CCCNC(=N)N)C(=O)N[C@@H](CCCNC(=N)N)C(=O)NCCCOCCOCCOCCCNC(=O)CCC(=O)NCCCOCCOCCOCCCNC(=O)CCC(=O)NCCCOCCOCCOCCCNC(=O)CCC(=O)N[C@@H](C)C(=O)O,"srtA (Staphylococcus aureus, UniProt Q2FV99)","binding, fluorescence polarization",,pH 7.5,,Kd,2.98 ± 0.24 µM
CC[C@H](C)[C@H](NC(=O)[C@H](CC(=O)O)NC(=O)[C@H](C)NC(=O)[C@H](Cc1ccc(OP(=O)(O)O)cc1)NC(=O)[C@H](CCCCN)NC(=O)[C@@H](NC(=O)[C@H](CC(=O)O)NC(=O)CNC(=O)[C@H](CCCCN)NC(=O)[C@H](CCSC)NC(=O)[C@H](CC(=O)O)NC(=O)[C@H](CC(C)C)NC(=O)[C@H](CCSC)NC(=O)c1ccc2c(c1)C(=O)OC21c2ccc(N(C)C)cc2Oc2cc(N(C)C)ccc21)C(C)C)C(=O)N[C@@H](CCC(=O)O)C(=O)N[C@@H](CO)C(=O)N[C@@H](CO)C(=O)N[C@@H](CC(N)=O)C(=O)N[C@@H](CC(=O)O)C(=O)O,ZAP70 SH2 domains,binding,,,,Kd,1.26 µM
Cn1c2cccc(=O)c-2nc2ccccc21,"TetR-family regulator NalD (Pseudomonas aeruginosa, UniProt Q9HY46)",microscale thermophoresis,,,,Kd,31.7 µM
CSCC[C@H](NC(=O)[C@H](Cc1ccc(OP(=O)(O)O)cc1)NC(=O)CNC(=O)CNC(=O)[C@H](CC(=O)O)NC(=O)[C@H](CO)NC(=O)[C@H](CCC(=O)O)NC(=O)CNC(=O)[C@@H](NC(=O)[C@H](CC(C)C)NC(=O)[C@H](CO)NC(=O)c1ccc2c(c1)C(=O)OC21c2ccc(N(C)C)cc2Oc2cc(N(C)C)ccc21)[C@@H](C)O)C(=O)N[C@@H](CC(=O)O)C(=O)N[C@@H](CCSC)C(=O)N[C@@H](CO)C(=O)N[C@@H](CCCCN)C(=O)N[C@@H](CC(=O)O)C(=O)N[C@@H](CCC(=O)O)C(=O)N[C@@H](CC(=O)O)C(=O)O,"Tyrosine-protein kinase TXK, SH2 domain (TXK, Homo sapiens, UniProt P42681)",binding,,,,Kd,1.03 µM
CSCC[C@H](N)C(=O)N[C@@H](C)C(=O)N[C@@H](C)C(=O)N[C@H](C(=O)N[C@@H](C)C(=O)NCC(=O)N[C@@H](CC(C)C)C(=O)N[C@@H](Cc1ccc(O)cc1)C(=O)NCC(=O)N[C@@H](CC(C)C)C(=O)NCC(=O)N[C@@H](CCC(=O)O)C(=O)N[C@@H](CC(=O)O)C(=O)N[C@@H](CCCNC(=N)N)C(=O)N[C@@H](CCC(N)=O)C(=O)N[C@@H](Cc1c[nH]cn1)C(=O)N[C@@H](CCCNC(=N)N)C(=O)N[C@@H](CCCCN)C(=O)N[C@@H](CCCCN)C(=O)N[C@@H](CCC(N)=O)C(N)=O)C(C)C,"Sh, DEL6-46 (Drosophila melanogaster, UniProt P08510)","ion current, blocker, inside-out patch clamp",,+30 mV,,Kd,4.6 µM
CSCC[C@H](NC(=O)[C@H](CC(=O)O)NC(=O)c1ccc2c(c1)C(=O)OC21c2ccc(N(C)C)cc2Oc2cc(N(C)C)ccc21)C(=O)N[C@@H](CO)C(=O)N[C@@H](CCCCN)C(=O)N[C@@H](CC(=O)O)C(=O)N[C@@H](CCC(=O)O)C(=O)N[C@@H](CO)C(=O)N[C@H](C(=O)N[C@@H](CC(=O)O)C(=O)N[C@@H](Cc1ccc(OP(=O)(O)O)cc1)C(=O)N[C@H](C(=O)N1CCC[C@H]1C(=O)N[C@@H](CCSC)C(=O)N[C@@H](CC(C)C)C(=O)N[C@@H](CC(=O)O)C(=O)N[C@@H](CCSC)C(=O)N[C@@H](CCCCN)C(=O)N[C@@H](CC(=O)O)C(=O)O)C(C)C)C(C)C,"Signal transducer and activator of transcription 2, SH2 domain (Homo sapiens, UniProt P52630)",binding,,,,Kd,0.42 µM
CC[C@H](CO)Nc1nc(NCc2ccc(-c3ccccn3)cc2)c2ncn(C(C)C)c2n1,"PIP4K2C (Homo sapiens, UniProt Q8TBX8)","binding, competition affinity chromatography",SH-SY5Y cell extract,,,Kd,14.5 µM
